Results from different studies.
Parts stem from different laboratories: compare values within a part only. Changes are numbered by the printed parent chain.

Sample 1 — method: RNA Bind-n-Seq; molecule type: RNA; medium: in vitro; concentration: 200 nM; notes: whole 134-nt RNA, ends assumed; with: 150 mM KCl; baseline: input library; reading: higher = stronger binding
Target: Ras GTPase-activating protein-binding protein 1, full length (G3BP1, Homo sapiens, UniProt Q13283)
Chain of UniProt Q13283 (whole entry, looked up): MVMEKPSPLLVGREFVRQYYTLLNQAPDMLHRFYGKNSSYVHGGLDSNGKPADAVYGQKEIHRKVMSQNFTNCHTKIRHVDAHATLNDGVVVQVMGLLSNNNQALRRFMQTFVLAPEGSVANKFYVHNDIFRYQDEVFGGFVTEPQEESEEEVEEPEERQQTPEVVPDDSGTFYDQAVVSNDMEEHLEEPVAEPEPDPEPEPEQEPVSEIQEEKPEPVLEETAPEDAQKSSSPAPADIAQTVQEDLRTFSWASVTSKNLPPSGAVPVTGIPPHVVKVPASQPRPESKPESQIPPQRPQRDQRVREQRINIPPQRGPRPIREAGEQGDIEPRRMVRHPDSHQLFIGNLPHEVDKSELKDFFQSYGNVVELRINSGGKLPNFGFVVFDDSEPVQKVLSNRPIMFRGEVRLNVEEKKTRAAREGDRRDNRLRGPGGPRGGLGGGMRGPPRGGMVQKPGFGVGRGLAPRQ
With `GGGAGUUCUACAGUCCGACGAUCCAAGUCCUGUGCUACACAUCGUAUGUACCGAAUCGGGUUUGGGAGGGAAAAAGGGAAAGUAUUAUGUUACGCCGUUCGGAUCUGCACUUCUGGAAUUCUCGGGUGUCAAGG` the log2 enrichment was 0.658.
`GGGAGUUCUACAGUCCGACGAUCUGGGAGGUGGAUUUUGUUUAUUUUUUUAGCUCAUUUCCAGGGGUGGGAAUUUUUUUUUAUUAUGUGUCAUGAAUAAAGUUGUUUUUGAAAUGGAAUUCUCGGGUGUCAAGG` gave a log2 enrichment of 0.25.
`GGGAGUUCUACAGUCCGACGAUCAGUCCUGUGCUACACAUCGUAUGUACCGAAUCGGGGAGGGGUUUGGGGAAAAAGGGGAAAGUAUUAUGUUACGCCGUUCGGAUCUGCACUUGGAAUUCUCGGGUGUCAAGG` has a log2 enrichment of 0.398.
With `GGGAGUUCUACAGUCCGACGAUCUGGCCCUGGUGGCAUGCGGGGAGGAAGAGGUGGCCUGAUGGAUCGUGGUGGUCCCGGUGGAAUGUUCAGAGGUGGCCGUGGUGGAGACAGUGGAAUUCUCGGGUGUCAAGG` the log2 enrichment was 0.674.
`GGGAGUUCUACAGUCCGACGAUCCACAGACAACACGCACCCACACAGACACAGAGGGAAGGGGUUGGGAUUGGGACAGGGUGCACAGCAGGGCGGGGUAGGACCCCAGCCCCUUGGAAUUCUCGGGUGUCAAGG` gave a log2 enrichment of 1.86.
For `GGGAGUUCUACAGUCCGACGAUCUAACUUUAGAGGAGGAUCUGAUGGAUAUGGCAGUGGACGUGGAUUUGGGGAUGCCUAUAAUGGGUAUGGAGGAGGACCUGGAGGUGGCAAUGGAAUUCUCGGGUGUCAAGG`, the log2 enrichment was 0.217.
`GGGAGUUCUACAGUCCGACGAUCACCAUGCAGGUGGGCAUCUUUGGGAAGUGGGGCAAGGGGGGGAUAGGGAGGGGGGCAACACUUUGGGAACAGGUGGUCCCAGGUCGUUUCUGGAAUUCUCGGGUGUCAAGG` gave a log2 enrichment of 1.34.
The log2 enrichment of `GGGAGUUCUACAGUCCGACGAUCUCUGGACAUGCAGGUGGACCAGUCAGUGCCAGAGUAAGUUGUUGUUUUCUUAAAAGAAAAAAAAAAAUGUAAAAUCAUCUAACCCUAACCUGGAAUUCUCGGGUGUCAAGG` is reported as -0.00439.
`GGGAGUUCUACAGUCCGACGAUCCUGUGCUACACAUCGUAUGUACCGAAUCGGGGUUUUUUGGGGUUUUUUGGGGUUUUUUGGGAAAGUAUUAUGUUACGCCGUUCGGAUCUGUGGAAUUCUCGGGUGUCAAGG` has a log2 enrichment of -0.384.

Sample 2 — method: DHFR PCA, deep sequencing; medium: yeast; with: (+)-ABA 200 µM; baseline: wild-type fitted maximum; reading: higher = stronger binding
Target: ABI1, truncated, D143A, DHFR fusion (Arabidopsis thaliana)
Notes: methotrexate growth selection, single substitutions
Starting sequence: PYL1, truncated, DHFR fusion (Arabidopsis thaliana); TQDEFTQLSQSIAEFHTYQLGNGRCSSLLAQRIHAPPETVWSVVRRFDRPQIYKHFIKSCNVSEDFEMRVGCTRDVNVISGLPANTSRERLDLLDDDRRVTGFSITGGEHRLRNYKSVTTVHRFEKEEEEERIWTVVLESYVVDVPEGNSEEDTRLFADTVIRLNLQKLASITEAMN; partner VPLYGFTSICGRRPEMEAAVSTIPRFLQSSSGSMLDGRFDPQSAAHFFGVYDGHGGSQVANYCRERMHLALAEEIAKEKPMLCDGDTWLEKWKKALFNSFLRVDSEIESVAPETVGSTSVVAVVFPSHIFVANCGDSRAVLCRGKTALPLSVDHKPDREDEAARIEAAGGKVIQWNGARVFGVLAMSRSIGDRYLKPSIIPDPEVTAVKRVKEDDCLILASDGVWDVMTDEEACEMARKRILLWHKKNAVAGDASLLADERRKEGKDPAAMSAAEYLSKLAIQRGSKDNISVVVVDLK
`N149Y`: “relative binding score” 26.5%.
For `K126H`, “relative binding score” read 109%.
For `H110E`, “relative binding score” read 17.2%.
`L91A`: “relative binding score” 7.24%.
For `G21W`, “relative binding score” read 93.6%.
For `P37N`, “relative binding score” read 46.5%.
`T6Q`: “relative binding score” 101%.
Under “relative binding score”, `E67I` is recorded as 99.7%.
`L20Y`: “relative binding score” 98.2%.
`K168C`: “relative binding score” 96.3%.
For `I33S`, “relative binding score” read 18.5%.
`V121K`: “relative binding score” -1.99%.
For `K58W`, “relative binding score” read 72.1%.
`L112R`: “relative binding score” -6.89%.
`I162N` — result for “relative binding score”: 46.8%.

Sample 3 — target: CREB3L4, bZIP domain (human); method: DHFR protein complementation; medium: yeast; baseline: wild-type JUN-FOS pair; reading: higher = stronger binding
Notes: single substitutions, most at no-binding floor
Starting sequence: JUN, bZIP domain (human); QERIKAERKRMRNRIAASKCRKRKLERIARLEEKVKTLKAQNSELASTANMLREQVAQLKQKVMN; partner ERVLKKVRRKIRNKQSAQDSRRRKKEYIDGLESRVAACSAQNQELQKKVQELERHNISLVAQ
With `L52Q` the binding fitness was -1.46 natural log.
The binding fitness of `A29G` is reported as -1.43 natural log.
With `V35K` the binding fitness was -1.62 natural log.
For `L59W`, the binding fitness was -1.34 natural log.
With `I28W` the binding fitness was -1.41 natural log.
For `A46S`, the binding fitness was -1.55 natural log.
`L59H` has a binding fitness of -1.54 natural log.
With `T37M` the binding fitness was -1.5 natural log.
The binding fitness of `E44T` is reported as -1.44 natural log.
With `L45N` the binding fitness was -1.45 natural log.
`A46D` gave a binding fitness of -1.23 natural log.
`M51P` gave a binding fitness of -1.43 natural log.
With `I28T` the binding fitness was -1.54 natural log.
`R30P` has a binding fitness of -1.4 natural log.
For `L52T`, the binding fitness was -1.57 natural log.
`L38Q` gave a binding fitness of -1.44 natural log.
`T48K` has a binding fitness of -1.35 natural log.
`L31Y` gave a binding fitness of -1.51 natural log.
For `Q55A`, the binding fitness was -1.4 natural log.
`K34E` has a binding fitness of -1.31 natural log.
`A46V` has a binding fitness of -1.43 natural log.

Sample 4 — method: protein-binding microarray; molecule type: double-stranded DNA, one strand shown; medium: in vitro; concentration: 2540 nM top; notes: 60-bp whole probe; with: salmon DNA 0.4 mg/ml; baseline: random background probes; reading: higher = stronger binding; constant ends, left off below: GCCTAGCAC … GTCTTGATTCGCTTGACGCTGCTG
Target: Interferon regulatory factor 3, full length, phosphomimetic (IRF3, Homo sapiens, UniProt Q14653, residues 1-427, S386D/S396D/S398D/S402D/T404D/S405D)
Target sequence (chain): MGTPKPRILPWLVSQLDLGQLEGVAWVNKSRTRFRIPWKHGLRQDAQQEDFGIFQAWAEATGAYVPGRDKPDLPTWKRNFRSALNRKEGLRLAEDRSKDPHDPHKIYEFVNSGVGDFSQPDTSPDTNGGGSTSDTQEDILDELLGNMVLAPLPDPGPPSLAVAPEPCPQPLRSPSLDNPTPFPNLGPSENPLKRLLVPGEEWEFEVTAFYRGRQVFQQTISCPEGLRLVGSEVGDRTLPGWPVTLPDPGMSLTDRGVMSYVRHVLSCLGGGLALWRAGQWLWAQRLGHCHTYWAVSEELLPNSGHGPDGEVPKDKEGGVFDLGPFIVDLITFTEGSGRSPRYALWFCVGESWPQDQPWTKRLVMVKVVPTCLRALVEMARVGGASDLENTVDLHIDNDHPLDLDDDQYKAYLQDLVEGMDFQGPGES
Under “fitted relative affinity”, `TTAGATTTCAGCATCGATTAGTGCTAG` is recorded as 0.316 z-score.
For `TTAGCTATCGGGACTGGATTAGTGCTA`, “fitted relative affinity” read -0.0809 z-score.
Under “fitted relative affinity”, `CTTGCTTTCCAATTCTCTTTGTGCTAG` is recorded as 4.45 z-score.
`TTAGAACTGCTTTTCCTTTAGTGCTAG` — result for “fitted relative affinity”: 0.754 z-score.
Under “fitted relative affinity”, `TATAGTTATTTTTATTAAAAGTGCTAG` is recorded as 0.652 z-score.
`TTACAATTTGCTTTAGTCATGTGCTAG` — result for “fitted relative affinity”: 0.428 z-score.
`TGATTTTGGTCTTTCTGTTTGTGCTAG` — result for “fitted relative affinity”: 1.47 z-score.
Under “fitted relative affinity”, `GACGGTTTCGGGACTGAGGACGTGCTA` is recorded as 4.98 z-score.
For `GCCGAACTGGGGTTTCGAGACGTGCTA`, “fitted relative affinity” read 1.23 z-score.
`TTATGTCTGGGTATTTTTTCGTGCTAG`: “fitted relative affinity” -0.177 z-score.
Under “fitted relative affinity”, `TGAGGTTTCGACACTGGGTTAGTGCTA` is recorded as 2.17 z-score.
`TTAGGACTGGGCCTCGGTTAGTGCTAG`: “fitted relative affinity” -1.09 z-score.
For `GACGGTATCGGTATCGGGCCGTGCTAG`, “fitted relative affinity” read 4.14 z-score.
Under “fitted relative affinity”, `GACGGTATCATACTGCTGACGTGCTAG` is recorded as 2.05 z-score.
`GCCGGTTTCGGTCTCGGGACGTGCTAG` — result for “fitted relative affinity”: 8.55 z-score.
For `TTAGATTTCAGTCTTGATTAGTGCTAG`, “fitted relative affinity” read 2.37 z-score.
`TTAGGACTGGGTATCGGTCAGTGCTAG` — result for “fitted relative affinity”: -0.0442 z-score.
`CTAGGACTGGGTCTCGGTTAGTGCTAG` — result for “fitted relative affinity”: -0.732 z-score.
`CCTCTTTTTTGTTCCACGCCGTGCTAG`: “fitted relative affinity” 1.81 z-score.

Sample 5 — target: CCNE2, cyclin fold, Cln2 fusion (human); method: yeast growth competition, sequencing; medium: yeast; notes: strong parent motif; baseline: not given; reading: higher = stronger binding
Starting sequence: CDKN1A docking peptide (human); SKACRRLFGPVDS; partner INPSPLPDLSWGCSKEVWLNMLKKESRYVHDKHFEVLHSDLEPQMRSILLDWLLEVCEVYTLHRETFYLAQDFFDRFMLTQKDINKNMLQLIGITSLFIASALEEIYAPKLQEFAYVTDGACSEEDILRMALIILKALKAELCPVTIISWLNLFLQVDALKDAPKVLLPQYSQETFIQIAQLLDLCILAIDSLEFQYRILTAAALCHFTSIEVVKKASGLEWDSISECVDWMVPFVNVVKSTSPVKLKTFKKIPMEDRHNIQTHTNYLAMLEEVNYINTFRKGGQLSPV
`SKACRRLFGPGDS [V11G]` — result for “normalised enrichment score”: 4.32.
Under “normalised enrichment score”, `SKACRRLFGPNDS [V11N]` is recorded as 4.16.
For `SKAKRRLFGPVDS [C4K]`, “normalised enrichment score” read 3.82.
For `SKACRRLFGGVDS [P10G]`, “normalised enrichment score” read 3.49.
For `SKAGRRLFGPVDS [C4G]`, “normalised enrichment score” read 0.621.
Under “normalised enrichment score”, `SKACRRPFGPVDS [L7P]` is recorded as 0.477.
For `SKACVRLFGPVDS [R5V]`, “normalised enrichment score” read 0.304.
`SKAYRRLFGPVDS [C4Y]`: “normalised enrichment score” 0.302.
`SKACRPLFGPVDS [R6P]`: “normalised enrichment score” -0.0245.
For `SKADRRLFGPVDS [C4D]`, “normalised enrichment score” read 0.439.
`SKAPRRLFGPVDS [C4P]`: “normalised enrichment score” 0.512.
Under “normalised enrichment score”, `SKACRRDFGPVDS [L7D]` is recorded as 0.272.
For `SKACTRLFGPVDS [R5T]`, “normalised enrichment score” read 0.34.
`SKACRKLFGPVDS [R6K]`: “normalised enrichment score” 3.28.
For `SKACRRLTGPVDS [F8T]`, “normalised enrichment score” read -0.18.
`SKACRRLFGPQDS [V11Q]` — result for “normalised enrichment score”: 4.25.
Under “normalised enrichment score”, `SKACRRLFGRVDS [P10R]` is recorded as 2.42.
Under “normalised enrichment score”, `SKCCRRLFGPVDS [A3C]` is recorded as 3.48.
Under “normalised enrichment score”, `SKACRRLFGPVGS [D12G]` is recorded as 3.06.
`SQACRRLFGPVDS [K2Q]` — result for “normalised enrichment score”: 3.2.

For quick reference, copied from above (sample 5):
For `SKADRRLFGPVDS [C4D]`, “normalised enrichment score” read 0.439.
For `SKACTRLFGPVDS [R5T]`, “normalised enrichment score” read 0.34.
Under “normalised enrichment score”, `SKACRRLFGRVDS [P10R]` is recorded as 2.42.
Under “normalised enrichment score”, `SKACRRLFGPVGS [D12G]` is recorded as 3.06.
`SKACRRLFGPQDS [V11Q]` — result for “normalised enrichment score”: 4.25.
Under “normalised enrichment score”, `SKACRRPFGPVDS [L7P]` is recorded as 0.477.
For `SKAGRRLFGPVDS [C4G]`, “normalised enrichment score” read 0.621.
`SQACRRLFGPVDS [K2Q]` — result for “normalised enrichment score”: 3.2.
`SKACRKLFGPVDS [R6K]`: “normalised enrichment score” 3.28.
